Results gathered from unrelated publications.
Numbered parts are unrelated; each lists some results of a single study.
Chain of UniProt P20309 (whole entry, looked up): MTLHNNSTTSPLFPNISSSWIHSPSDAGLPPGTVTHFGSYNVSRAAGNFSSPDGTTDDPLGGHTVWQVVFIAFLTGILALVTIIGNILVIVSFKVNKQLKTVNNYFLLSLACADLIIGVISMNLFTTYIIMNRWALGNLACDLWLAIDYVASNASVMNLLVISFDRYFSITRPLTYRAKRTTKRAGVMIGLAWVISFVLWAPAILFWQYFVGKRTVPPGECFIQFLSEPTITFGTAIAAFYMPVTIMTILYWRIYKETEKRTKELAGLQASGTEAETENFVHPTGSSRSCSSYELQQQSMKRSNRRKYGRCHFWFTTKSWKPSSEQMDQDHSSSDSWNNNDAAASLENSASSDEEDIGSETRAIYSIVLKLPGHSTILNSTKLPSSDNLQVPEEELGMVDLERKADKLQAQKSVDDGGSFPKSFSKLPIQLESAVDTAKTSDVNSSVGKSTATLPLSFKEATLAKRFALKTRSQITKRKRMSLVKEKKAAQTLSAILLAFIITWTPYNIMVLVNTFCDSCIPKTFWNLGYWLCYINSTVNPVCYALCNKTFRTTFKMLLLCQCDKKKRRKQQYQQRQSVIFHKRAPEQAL

Sample 1
Target: Calcium/calmodulin-dependent protein kinase type II subunit alpha (CAMK2A, Homo sapiens, UniProt Q9UQM7)
Chain of UniProt Q9UQM7 (whole entry, looked up): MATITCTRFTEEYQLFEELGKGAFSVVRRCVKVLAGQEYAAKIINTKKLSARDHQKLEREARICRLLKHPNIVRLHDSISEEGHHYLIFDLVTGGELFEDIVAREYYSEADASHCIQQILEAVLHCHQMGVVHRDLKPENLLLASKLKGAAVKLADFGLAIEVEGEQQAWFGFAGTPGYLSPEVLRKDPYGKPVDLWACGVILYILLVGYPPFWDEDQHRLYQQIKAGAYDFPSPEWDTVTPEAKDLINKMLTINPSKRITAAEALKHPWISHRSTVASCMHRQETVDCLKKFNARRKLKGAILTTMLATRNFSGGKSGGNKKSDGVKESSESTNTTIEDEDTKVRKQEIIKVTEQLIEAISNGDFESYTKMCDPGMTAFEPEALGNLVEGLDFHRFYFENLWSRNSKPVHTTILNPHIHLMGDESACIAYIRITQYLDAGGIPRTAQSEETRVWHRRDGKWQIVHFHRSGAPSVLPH
Read-out: enzyme activity
Action: inhibitor
Concentration: 10 µM
| SMILES | inhibition [%] |
| --- | --- |
| C[C@H]1CC[C@@H]2[C@@H](C)[C@H]3[C@H](C[C@H]4[C@@H]5CC=C6C[C@@H](O)CC[C@]6(C)[C@H]5CC[C@]34C)N2C1 | 24 |
| O=C(c1ccccc1)c1ccccc1 | 7 |
| NC(=O)c1ccc[n+]([O-])c1 | -3 |
| Cc1ccc(C(=O)c2cc(O)c(O)c([N+](=O)[O-])c2)cc1 | 0 |
| CC(=O)N[C@@H](CC(N)=O)C(=O)O | -12 |
| CC(C)OC(=O)CCC/C=C\C[C@@H]1[C@@H](/C=C/C(F)(F)COc2ccccc2)[C@H](O)C[C@@H]1O | -4 |
| O=C(O)c1cc(=O)c2ccccc2o1 | -5 |
| C=Cc1c(C)c2cc3[nH]c(cc4nc(cc5nc(cc1[nH]2)C(C)=C5CCC(=O)O)C(CCC(=O)O)=C4C)c(C)c3C=C | -9 |

Sample 2
Target: Bromodomain-containing protein 4, BD1 (BRD4, Homo sapiens, UniProt O60885)
Concentration: 50 µM
| Compound | inhibition [%] |
| --- | --- |
| O=C(O)c1ccc(-c2c[nH]c3ncc(-c4ccccc4)cc23)cc1C1CCCC1 | 7.35 |
| COc1ccnc(C[S+]([O-])c2nc3ccc(OC(F)F)cc3[nH]2)c1OC (centres unmarked) | 7.3 |
| CCn1c(C(=O)N(C2CC2)C2CC2)cc2c3c(ncn3C)c(Nc3cc(C)n(C)n3)nc21 | -1.8 |
| CC(=O)c1c(C)c2cnc(Nc3ccc(N4CCNCC4)cn3)nc2n(C2CCCC2)c1=O | 38.4 |
| CCCS(=O)(=O)Nc1ccc(F)c(C(=O)c2c[nH]c3ncc(-c4ccc(Cl)cc4)cc23)c1F | 17.6 |
| CC(C)[C@H](CO)Nc1nc(Nc2cccc(Cl)c2)c2ncn(C(C)C)c2n1 | 46 |
| CC(C)(C)Cn1c(N)nc2ccc(-c3[nH]c(C(C)(C)C)nc3-c3ccc(F)cc3)nc21 | 72.7 |
| CN1CCN(c2ccc3nc(-c4c(N)c5c(F)cccc5[nH]c4=O)[nH]c3c2)CC1 | 69.2 |

Further values, each from its own experiment
| Molecule | tested on | test | system | conditions | how to read | measurement | result |
| --- | --- | --- | --- | --- | --- | --- | --- |
| CCC(=O)N[C@@H]1CC[C@H](C(=O)N(C)c2ccc(-c3nc4ccccc4o3)cc2)C1 | Muscarinic acetylcholine receptor M3 (CHRM3, Homo sapiens, UniProt P20309) | binding, radioligand binding | – | 10 µM | – | inhibition | -11.2% |
| Cc1cc2c(C(N)=O)c(N)n(-c3c(C)ccc(O)c3C)c2nc1C | HCC1569 | CDK1 Thr14 phosphorylation, Jess immunoblot | – | concentration not given, after washout | – | time to return to baseline | ≤ 2 h |
| DTFDEAFLAAVRSHQG | Saccharomyces cerevisiae | binding, yeast competitive growth sequencing | peptide, cyclin D1-Cln2 strain, peptide tiling library | – | direction not given | enrichment score | 2.22 |
| CC(C)(C)OC(=O)c1ncn2c1[C@@H]1CCCN1C(=O)c1c(Br)cccc1-2 | mouse MPNST tumor cells | high-content immunofluorescence imaging, refers to: nuclear SOX9 | – | 10 µM, 12 h, mean of 2 replicates | relative to: DMSO control, higher = more nuclear SOX9 | nuclear SOX9 intensity | 85.3 % of DMSO |

For quick reference, copied from above (further values, each from its own experiment):
| Molecule | tested on | test | system | conditions | how to read | measurement | result |
| --- | --- | --- | --- | --- | --- | --- | --- |
| CCC(=O)N[C@@H]1CC[C@H](C(=O)N(C)c2ccc(-c3nc4ccccc4o3)cc2)C1 | Muscarinic acetylcholine receptor M3 (CHRM3, Homo sapiens, UniProt P20309) | binding, radioligand binding | – | 10 µM | – | inhibition | -11.2% |
| DTFDEAFLAAVRSHQG | Saccharomyces cerevisiae | binding, yeast competitive growth sequencing | peptide, cyclin D1-Cln2 strain, peptide tiling library | – | direction not given | enrichment score | 2.22 |
